Measurements gathered from unrelated publications.
Protocols differ between the studies behind these lines. ± gives the spread as reported.
CD38: ADP-ribosyl cyclase/cyclic ADP-ribose hydrolase 1 (CD38, Homo sapiens, UniProt P28907)
PTH1R: Parathyroid hormone/parathyroid hormone-related peptide receptor (PTH1R, Homo sapiens, UniProt Q03431)
CXCR4: C-X-C chemokine receptor type 4 (CXCR4, Homo sapiens, UniProt P61073)
T1: RNA aptamer A9G; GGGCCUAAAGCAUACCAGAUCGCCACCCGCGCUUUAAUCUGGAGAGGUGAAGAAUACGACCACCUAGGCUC
T2: RNA riboswitch (Geobacter sulfurreducens); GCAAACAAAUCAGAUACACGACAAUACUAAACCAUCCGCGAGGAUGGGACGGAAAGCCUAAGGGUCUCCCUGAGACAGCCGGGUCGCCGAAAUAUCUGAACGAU
T3: RNA aptamer GAA^A junction to GGG^A; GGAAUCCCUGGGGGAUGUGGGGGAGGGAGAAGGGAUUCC

| Compound | target | test | test system | conditions | scale | endpoint | value |
| --- | --- | --- | --- | --- | --- | --- | --- |
| COc1cc(/C=C2/SC(=S)N(CC(=O)Nc3cccc(C(=O)O)c3)C2=O)cc(OC)c1OC | CD38 | hydrolase activity, fluorometric |  | 50 µM, with: ε-NAD+ substrate | baseline: untreated | remaining activity | 98 ± 3.9% |
| COc1ccc2c(Cl)c(C(N)=O)sc2n1 | Cyclin-G-associated kinase (GAK, Homo sapiens, UniProt O14976) | binding, weak affinity chromatography-MS |  | flow 20 µL/min | higher = stronger binding | adjusted retention time | 108 min |
| CSCC[C@H](NC(=O)[C@H](CC(C)C)NC(=O)[C@H](CCC(N)=O)NC(=O)[C@H](Cc1c[nH]cn1)NC(=O)[C@H](CCC(=O)O)NC(=O)[C@H](CO)NC(=O)[C@@H](NC(=O)[C@@H](N)CO)C(C)C)C(=O)N[C@@H](Cc1c[nH]cn1)C(=O)N[C@@H](CC(N)=O)C(=O)N[C@@H](CC(C)C)C(=O)NCC(=O)N[C@@H](CCCCN)C(=O)N[C@@H](Cc1c[nH]cn1)C(=O)N[C@@H](CC(C)C)C(=O)N[C@@H](CC(N)=O)C(=O)N[C@@H](CO)C(=O)N[C@@H](CCSC)C(=O)N[C@@H](CCC(=O)O)C(=O)N[C@@H](CCCNC(=N)N)C(=O)N[C@H](C(=O)N[C@@H](CCC(=O)O)C(=O)N[C@@H](Cc1c[nH]c2ccccc12)C(=O)N[C@@H](CC(C)C)C(=O)N[C@@H](CCCNC(=N)N)C(=O)N[C@@H](CCCCN)C(=O)N[C@@H](CCCCN)C(=O)N[C@@H](CC(C)C)C(=O)N[C@@H](CCC(N)=O)C(=O)N[C@@H](CC(=O)O)C(=O)N[C@H](C(=O)N[C@@H](Cc1c[nH]cn1)C(=O)N[C@@H](CC(N)=O)C(=O)N[C@@H](Cc1ccccc1)C(=O)N[C@@H](CCCCNC(=O)c1ccc2c(c1)C1(OC2=O)c2ccc(N(C)C)cc2Oc2cc(N(C)C)ccc21)C(N)=O)C(C)C)C(C)C | PTH1R | binding, NanoBRET |  | pH 5.5, acetate buffer |  | koff | 0.088 ± 0.04 s⁻¹ |
| CNC(=O)C[C@H](Cc1ccc(C#N)cc1)NC(=O)c1cc(-c2ccc(CN[C@H](C)c3ccc(C)cc3)o2)ccc1Cl | ATPase family AAA domain-containing protein 2 (ATAD2, Homo sapiens, UniProt Q6PL18) |  | MCF7 | 1 µM, 1 h |  | FRAP recovery half-time | 16.5 ± 3.2 s |
| CCN(CCCC[C@H](NC(=O)[C@H](Cc1ccc(OC)c(OC)c1)NC(=O)[C@H](C)NC(=O)[C@H](CC1CCCCC1)NC(=O)c1ccc(Br)c(N)c1)C(=O)N[C@@H](CO)C(=O)OC)C(C)C | M-phase phosphoprotein 8 (Homo sapiens, UniProt Q99549) | binding | HEK-293T cell lysate | concentration not given |  | competition of probe pulldown | inhibited |
| CN1C(=O)[C@@H](Cc2ccc(O)cc2)NC(=O)CNC(=O)[C@H](Cc2ccc3ccccc3c2)NC(=O)[C@H](CCCNC(=N)N)NC(=O)[C@H]1CCCNC(=O)c1ccc(CNC(=O)CN2CCN(CC(=O)O)CCN(CC(=O)O)CCN(CC(=O)O)CC2)cc1 [gallium-68 labelled] | CXCR4 |  | Daudi | concentration not given, with: 0.2 pmol tracer, 0.2 nmol DOTA-pentixafor block |  | non-specific cell binding | 0.3 ± 0.1% |
| CN(C)[C@@H]1C(=O)C(C(N)=O)=C(O)[C@@]2(O)C(=O)C3=C(O)c4c(O)cccc4[C@@](C)(O)[C@H]3C[C@@H]12 | T1, RNA aptamer A9G | fluorescence titration |  | pH 7.5, 25 °C, MgCl2 10 mM |  | Kd | 162 nM |
| CC(=O)N[C@@H](CC(=O)O)C(=O)N[C@H]1CSSC[C@@H](C(=O)N[C@H](C(=O)N[C@@H](Cc2ccccc2)C(=O)N[C@@H](Cc2c[nH]cn2)C(N)=O)[C@@H](C)O)NC(=O)[C@H](Cc2c[nH]c3ccccc23)NC(=O)[C@H](C(C)C)NC(=O)[C@H](CC(C)C)NC(=O)[C@H](CCC(=O)O)NC(=O)CNC(=O)[C@H](C(C)(C)C)NC(=O)[C@H](Cc2c[nH]cn2)NC(=O)[C@H](Cc2ccc(O)cc2)NC(=O)[C@H](C)NC1=O | Immunoglobulin heavy constant gamma 1 (IGHG1, Homo sapiens, UniProt P01857) | binding, ITC |  | 25 °C, with: Herceptin |  | ΔH | -12 kcal/mol |
| Nc1nc2c(ncn2[C@@H]2O[C@@H]3CO[P@@](O)(=S)O[C@H]4[C@@H](O)[C@H](n5cnc6c(N)ncnc65)O[C@@H]4CO[P@](O)(=S)O[C@H]3[C@H]2O)c(=O)[nH]1 | T2, RNA riboswitch (Geobacter sulfurreducens) | competition gel shift |  | Mg2+ 10 mM, with: 32P c-AMP-GMP |  | Kd | 360 nM |
| COc1cc(OC)c2c(c1)C(=O)c1cc3oc(=O)cc(C)c3c(O)c1C2=O | mushroom tyrosinase | enzyme activity |  | 100 µg/mL, with: L-DOPA |  | inhibition | 63.86 ± 0.36% |
| CC(=O)NCCN(CC(=O)NCCN(CC(=O)NCCN(CC(=O)NCCC(N)=O)C(=O)C[C@@H](N)CCCNC(=N)N)C(=O)C[C@@H](N)CCCNC(=N)N)C(=O)C[C@@H](N)Cc1ccccc1 | HIV-1 TAR RNA |  |  | 25 °C |  | binding free energy ΔG° | -37.1 ± 2.8 kJ/mol |
| CCOc1ccccc1-c1nnc2n1N=C(c1ccc(NC3CCCCC3)cc1)CS2 | CXCR4 | β-arrestin recruitment, agonist | U2OS |  |  | Emax | 10% |
| CCCCCC[N+](CCCCCC)(CCCCCC)CCCCCC | Potassium channel subfamily K member 2 (Kcnk2, Rattus norvegicus, UniProt Q920B6) | ion current, blocker, inside-out patch clamp | Xenopus oocytes | 1 µM, with: activating pH 5.0 jump | baseline: peak current | remaining current | 50% |
| CC(=O)NCCN(CC(=O)NCCN(CC(=O)NCCN(CC(=O)NCCC(N)=O)C(=O)[C@@H](N)CCCNC(=N)N)C(=O)[C@@H](N)CCCNC(=N)N)C(=O)[C@@H](N)Cc1ccccc1 | HIV-1 TAR RNA |  |  | extrapolated to 1 M KCl |  | non-electrostatic ΔG° | -31.1 ± 0.4 kJ/mol |
| C=C[C@]12CCC(=O)C=C1CC[C@H]1[C@@H]3CC[C@H](C(C)=O)[C@@]3(C)CC[C@@H]12 | Membrane progesterone receptor epsilon (Paqr9, Mus musculus, UniProt Q6TCG2) | TIRF imaging | GFP-tagged cells | 100 nM, 20 min | baseline: vehicle | cell surface stability | no effect |
| Nc1ncnc2c1ncn2C1OC(COP(=O)(O)O)C(O)C1O (stereo not drawn) | Fructose-1,6-bisphosphatase 1 (Mus musculus, UniProt Q9QXD6, G27P) | enzyme activity, inhibitor | liver homogenate |  | baseline: G27P mutant over wild type | IC50 ratio | > 400 fold |
| C=C1C(=O)O[C@@H]2[C@H]3C(CO)=CC(=O)C3=C(C)C[C@H](OC(=O)Cc3ccc(O)cc3)[C@@H]12 | Alpha-glucosidase MAL12 (MAL12, Saccharomyces cerevisiae S288c, UniProt P53341) | fluorescence quenching |  | 310 K |  | quenching rate constant Kq | 9.11e+11 L/mol/s |

| Compound | target | test | test system | conditions | scale | endpoint | value |
| --- | --- | --- | --- | --- | --- | --- | --- |
| C=C1CN(S(=O)(=O)c2ccc(C)cc2)CCCN(Cc2ccccc2)CCCN(S(=O)(=O)c2ccc(C)cc2)C1 | Inactive tyrosine-protein kinase 7 (PTK7, Homo sapiens, UniProt Q13308) | SILAC mass spectrometry | SUP-T1, crude membrane fraction | 10 µM, 17 h, reverse labelling | baseline: DMSO over compound | protein level ratio | 2.49 |
| CSCC[C@H](NC(=O)[C@H](CO)NC(=O)[C@H](CC(N)=O)NC(=O)[C@H](CC(C)C)NC(=O)[C@H](CO)NC(=O)[C@H](CCCCN)NC(=O)CNC(=O)[C@H](CCCCN)NC(=O)[C@H](CC(=O)O)NC(=O)[C@H](Cc1c[nH]cn1)NC(=O)[C@H](CC(C)C)NC(=O)[C@H](CC(C)C)NC(=O)[C@H](CCC(N)=O)NC(=O)[C@H](Cc1c[nH]cn1)NC(=O)[C@H](CCC(=O)O)NC(=O)[C@H](CO)NC(=O)[C@@H](NC(=O)[C@H](C)N)C(C)C)C(=O)N[C@@H](CCC(=O)O)C(=O)N[C@@H](CCCNC(=N)N)C(=O)N[C@H](C(=O)N[C@@H](CCC(=O)O)C(=O)N[C@@H](Cc1c[nH]c2ccccc12)C(=O)N[C@@H](CC(C)C)C(=O)N[C@@H](CCCNC(=N)N)C(=O)N[C@@H](CCCCN)C(=O)N[C@@H](CCCCN)C(=O)N[C@@H](CC(C)C)C(=O)N[C@@H](CCC(N)=O)C(=O)N[C@@H](CC(=O)O)C(=O)N[C@H](C(=O)N[C@@H](Cc1c[nH]cn1)C(=O)N[C@@H](CC(N)=O)C(=O)N[C@@H](Cc1ccccc1)C(=O)N[C@@H](CCCCNC(=O)c1ccc2c(c1)C1(OC2=O)c2ccc(N(C)C)cc2Oc2cc(N(C)C)ccc21)C(N)=O)C(C)C)C(C)C | PTH1R | binding, NanoBRET | HEK293 |  |  | koff | 0.043 ± 0.01 s⁻¹ |
| O=C(NCc1ccncc1)c1cc(F)cc(F)c1 | Mitogen-activated protein kinase 14 (MAPK14, Homo sapiens, UniProt Q16539) | enzyme activity |  |  |  | ligand efficiency | 0.17 |
| [3H]C([3H])([3H])c1cnccc1CN1C[C@@H](c2cc(F)c(F)c(F)c2)CC1=O | Synaptic vesicle glycoprotein 2A (SV2A, Homo sapiens, UniProt Q7L0J3) | radioligand binding | human Alzheimer disease, temporal cortex P1 fraction | 5 nM | baseline: control brains | specific binding | decreased |
| CNc1ccccc1C(=O)O[C@H]1C[C@H](n2cnc3c(N)ncnc32)O[C@@H]1COP(=O)(O)OP(=O)(O)O | Unconventional myosin-Va (Gallus gallus, UniProt Q02440, D297C/G292C/I296C/S293C/V295G) | stopped-flow FRET |  | 25 °C, with: MgCl2 10 mM |  | pocket reverse rate constant | 3.99 ± 2.24 s⁻¹ |
| CC(=O)NCCN(CCC(=O)NCCN(CCC(=O)NCCN(CCC(=O)NCCC(N)=O)C(=O)[C@@H](N)CCCNC(=N)N)C(=O)[C@@H](N)CCCCN)C(=O)[C@@H](N)Cc1ccccc1 | HIV-1 TAR RNA |  |  |  |  | non-electrostatic TΔS° | -38.2 ± 1.2 kJ/mol |
| CCCCCCCC(=O)Nc1ccc(OC)nc1C | Liver carboxylesterase 1 (CES1, Homo sapiens, UniProt P23141) | enzyme activity, substrate |  |  | baseline: CES1 over human CES2 | specific activity ratio | 13 |
| CC(=O)NCCN(CC(=O)NCCN(CC(=O)NCCN(CC(=O)NCCC(N)=O)C(=O)C[C@@H](N)Cc1ccccc1)C(=O)C[C@@H](N)CCCNC(=N)N)C(=O)C[C@@H](N)Cc1ccccc1 | HIV-1 TAR RNA |  |  | concentration not given |  | heat capacity change ΔCp | -1.66 ± 0.16 kJ/mol/K |
| CC(OCCCCCN1C[C@H](O)[C@@H](O)[C@H](O)[C@H]1CO)C(C)(C)C (stereo partly drawn) | Beta-glucosidase (GBA2, Homo sapiens, UniProt Q9HCG7) |  |  |  | baseline: GBA3 over target | selectivity ratio | 19700 |
| N=C(N)NCCC[C@H](NC(=O)[C@H](Cc1ccccc1)NC(=O)[C@@H](N)CO)C(=O)N[C@@H](CC(N)=O)C(N)=O | Neuropeptide S receptor (NPSR1, Homo sapiens, UniProt Q6W5P4, N107I) | calcium mobilization, agonist | CHO-Galpha16 | unit not given | baseline: maximal assay window | maximal response | 1 |
| NC(=O)C1CCNC(=O)C(Cc2ccc([N+](=O)[O-])cc2)NC(=O)C(Cc2ccco2)NC(=O)C(CC2CC2)NC(=O)C=CC(=O)N1 (stereo not drawn) | Serine/threonine-protein kinase pim-1 (PIM1, Homo sapiens, UniProt P11309) | DNA-templated library selection |  | one selection round |  | enrichment factor | 1.3 |
| O=S(=O)(Nc1ccc(O)c2ccccc12)c1ccc(Cl)cc1 | CD38 | hydrolase activity, fluorometric |  | 50 µM, with: ε-NAD+ substrate | baseline: untreated | remaining activity | 95.9 ± 1.4% |
| CN1C=C/C(=C/C=C/c2sc3ccccc3[n+]2CC(=O)NCCOCCOCCOCCNC(=O)CCCC[C@@H]2SC[C@@H]3NC(=O)N[C@@H]32)c2ccccc21 | T3, RNA aptamer GAA^A junction to GGG^A | fluorescence titration |  |  |  | binding | binds weakly |
| O=C1CC[C@H](N2Cc3cc(-c4cnn5ccc(NCc6ccccc6)nc45)ccc3C2=O)C(=O)N1 | Cereblon/Casein kinase I alpha (CSNK1A1/CRBN, Homo sapiens, UniProt P48729+Q96SW2) | protein level, degrader, luciferase | MOLT-4 |  |  | Dmax | 30% |
| CC(=O)NCCN(CCC(=O)NCCN(CCC(=O)NCCN(CCC(=O)NCCC(N)=O)C(=O)[C@@H](N)CCCNC(=N)N)C(=O)[C@@H](N)CCCNC(=N)N)C(=O)[C@@H](N)Cc1ccccc1 | HIV-1 TAR RNA |  |  | concentration not given |  | heat capacity change ΔCp | -2.79 ± 0.34 kJ/mol/K |
| COc1cc(C(=O)NC2CCC(N3CCN(CC4CCC5(CCCC5)C4)CC3)CC2)c(F)cc1Nc1ncc2c(n1)N(C1CCCC1(F)F)CC(F)(F)C(=O)N2C (stereo not drawn) | Fibroblast growth factor receptor 4 (FGFR4, Homo sapiens, UniProt P22455) | cell-free assay, TR-FRET |  | 10 µM |  | inhibition | 2.84% |
